Results of several laboratories.
Compare with care: the assays were run in different laboratories. “And” joins repeats or separate records; there may be more than shown. ± gives the spread as reported.
Beta-lactamase CTX-M-27: Beta-lactamase CTX-M-27 (Escherichia coli, UniProt Q840M4)
Sequence of UniProt Q9LIR4 (whole entry, looked up): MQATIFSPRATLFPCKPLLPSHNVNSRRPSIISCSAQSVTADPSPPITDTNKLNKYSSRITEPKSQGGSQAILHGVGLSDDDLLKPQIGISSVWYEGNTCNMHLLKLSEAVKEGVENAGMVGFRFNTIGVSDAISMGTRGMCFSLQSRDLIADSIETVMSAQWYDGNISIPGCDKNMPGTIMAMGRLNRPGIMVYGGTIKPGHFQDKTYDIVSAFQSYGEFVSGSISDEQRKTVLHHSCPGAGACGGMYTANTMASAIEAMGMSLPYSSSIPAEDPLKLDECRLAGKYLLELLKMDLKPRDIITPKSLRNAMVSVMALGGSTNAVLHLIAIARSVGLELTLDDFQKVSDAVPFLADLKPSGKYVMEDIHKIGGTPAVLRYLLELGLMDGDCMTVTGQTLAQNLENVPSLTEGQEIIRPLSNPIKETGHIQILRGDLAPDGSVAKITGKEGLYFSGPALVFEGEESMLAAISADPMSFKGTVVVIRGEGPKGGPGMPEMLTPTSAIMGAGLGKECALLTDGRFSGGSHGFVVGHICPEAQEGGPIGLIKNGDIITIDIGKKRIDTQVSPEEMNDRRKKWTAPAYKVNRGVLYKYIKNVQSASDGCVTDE
Sequence of UniProt Q5VT52 (whole entry, looked up): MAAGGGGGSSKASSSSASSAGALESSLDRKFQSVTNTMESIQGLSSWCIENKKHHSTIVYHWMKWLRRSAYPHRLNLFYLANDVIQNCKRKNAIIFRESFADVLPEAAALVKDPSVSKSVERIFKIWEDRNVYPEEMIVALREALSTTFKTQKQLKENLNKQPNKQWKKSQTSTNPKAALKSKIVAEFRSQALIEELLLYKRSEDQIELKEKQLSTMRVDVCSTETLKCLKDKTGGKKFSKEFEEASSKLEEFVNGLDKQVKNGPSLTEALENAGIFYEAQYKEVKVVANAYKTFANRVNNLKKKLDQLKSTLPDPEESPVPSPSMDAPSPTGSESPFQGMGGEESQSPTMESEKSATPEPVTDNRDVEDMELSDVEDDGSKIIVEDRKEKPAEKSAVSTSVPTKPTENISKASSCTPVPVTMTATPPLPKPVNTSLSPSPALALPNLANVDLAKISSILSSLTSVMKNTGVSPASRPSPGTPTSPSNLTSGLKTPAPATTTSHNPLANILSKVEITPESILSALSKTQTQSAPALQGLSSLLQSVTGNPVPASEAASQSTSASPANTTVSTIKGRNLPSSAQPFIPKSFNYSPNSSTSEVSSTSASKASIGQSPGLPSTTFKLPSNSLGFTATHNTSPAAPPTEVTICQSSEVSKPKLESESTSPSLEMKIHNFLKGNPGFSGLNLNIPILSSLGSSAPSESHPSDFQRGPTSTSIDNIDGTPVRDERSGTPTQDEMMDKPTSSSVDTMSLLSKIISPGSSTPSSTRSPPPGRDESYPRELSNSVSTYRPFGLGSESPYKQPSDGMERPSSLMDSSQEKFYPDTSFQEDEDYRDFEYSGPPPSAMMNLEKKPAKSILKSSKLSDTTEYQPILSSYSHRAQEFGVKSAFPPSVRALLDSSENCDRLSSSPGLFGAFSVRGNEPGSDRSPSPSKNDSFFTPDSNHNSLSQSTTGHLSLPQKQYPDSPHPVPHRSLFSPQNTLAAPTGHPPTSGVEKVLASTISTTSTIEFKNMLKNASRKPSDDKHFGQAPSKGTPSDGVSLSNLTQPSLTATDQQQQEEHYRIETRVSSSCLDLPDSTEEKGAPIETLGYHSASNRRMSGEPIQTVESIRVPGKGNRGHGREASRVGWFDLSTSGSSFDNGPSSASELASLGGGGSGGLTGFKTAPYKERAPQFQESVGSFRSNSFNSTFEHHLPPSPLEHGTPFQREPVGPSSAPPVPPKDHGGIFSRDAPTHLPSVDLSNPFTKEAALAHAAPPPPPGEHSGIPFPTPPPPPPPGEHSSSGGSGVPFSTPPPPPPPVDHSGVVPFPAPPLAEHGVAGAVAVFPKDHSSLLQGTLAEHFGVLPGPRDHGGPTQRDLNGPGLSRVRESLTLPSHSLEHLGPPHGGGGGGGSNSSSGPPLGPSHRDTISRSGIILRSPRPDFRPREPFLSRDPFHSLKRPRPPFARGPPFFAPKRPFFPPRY
Sequence of UniProt P02751 (whole entry, looked up): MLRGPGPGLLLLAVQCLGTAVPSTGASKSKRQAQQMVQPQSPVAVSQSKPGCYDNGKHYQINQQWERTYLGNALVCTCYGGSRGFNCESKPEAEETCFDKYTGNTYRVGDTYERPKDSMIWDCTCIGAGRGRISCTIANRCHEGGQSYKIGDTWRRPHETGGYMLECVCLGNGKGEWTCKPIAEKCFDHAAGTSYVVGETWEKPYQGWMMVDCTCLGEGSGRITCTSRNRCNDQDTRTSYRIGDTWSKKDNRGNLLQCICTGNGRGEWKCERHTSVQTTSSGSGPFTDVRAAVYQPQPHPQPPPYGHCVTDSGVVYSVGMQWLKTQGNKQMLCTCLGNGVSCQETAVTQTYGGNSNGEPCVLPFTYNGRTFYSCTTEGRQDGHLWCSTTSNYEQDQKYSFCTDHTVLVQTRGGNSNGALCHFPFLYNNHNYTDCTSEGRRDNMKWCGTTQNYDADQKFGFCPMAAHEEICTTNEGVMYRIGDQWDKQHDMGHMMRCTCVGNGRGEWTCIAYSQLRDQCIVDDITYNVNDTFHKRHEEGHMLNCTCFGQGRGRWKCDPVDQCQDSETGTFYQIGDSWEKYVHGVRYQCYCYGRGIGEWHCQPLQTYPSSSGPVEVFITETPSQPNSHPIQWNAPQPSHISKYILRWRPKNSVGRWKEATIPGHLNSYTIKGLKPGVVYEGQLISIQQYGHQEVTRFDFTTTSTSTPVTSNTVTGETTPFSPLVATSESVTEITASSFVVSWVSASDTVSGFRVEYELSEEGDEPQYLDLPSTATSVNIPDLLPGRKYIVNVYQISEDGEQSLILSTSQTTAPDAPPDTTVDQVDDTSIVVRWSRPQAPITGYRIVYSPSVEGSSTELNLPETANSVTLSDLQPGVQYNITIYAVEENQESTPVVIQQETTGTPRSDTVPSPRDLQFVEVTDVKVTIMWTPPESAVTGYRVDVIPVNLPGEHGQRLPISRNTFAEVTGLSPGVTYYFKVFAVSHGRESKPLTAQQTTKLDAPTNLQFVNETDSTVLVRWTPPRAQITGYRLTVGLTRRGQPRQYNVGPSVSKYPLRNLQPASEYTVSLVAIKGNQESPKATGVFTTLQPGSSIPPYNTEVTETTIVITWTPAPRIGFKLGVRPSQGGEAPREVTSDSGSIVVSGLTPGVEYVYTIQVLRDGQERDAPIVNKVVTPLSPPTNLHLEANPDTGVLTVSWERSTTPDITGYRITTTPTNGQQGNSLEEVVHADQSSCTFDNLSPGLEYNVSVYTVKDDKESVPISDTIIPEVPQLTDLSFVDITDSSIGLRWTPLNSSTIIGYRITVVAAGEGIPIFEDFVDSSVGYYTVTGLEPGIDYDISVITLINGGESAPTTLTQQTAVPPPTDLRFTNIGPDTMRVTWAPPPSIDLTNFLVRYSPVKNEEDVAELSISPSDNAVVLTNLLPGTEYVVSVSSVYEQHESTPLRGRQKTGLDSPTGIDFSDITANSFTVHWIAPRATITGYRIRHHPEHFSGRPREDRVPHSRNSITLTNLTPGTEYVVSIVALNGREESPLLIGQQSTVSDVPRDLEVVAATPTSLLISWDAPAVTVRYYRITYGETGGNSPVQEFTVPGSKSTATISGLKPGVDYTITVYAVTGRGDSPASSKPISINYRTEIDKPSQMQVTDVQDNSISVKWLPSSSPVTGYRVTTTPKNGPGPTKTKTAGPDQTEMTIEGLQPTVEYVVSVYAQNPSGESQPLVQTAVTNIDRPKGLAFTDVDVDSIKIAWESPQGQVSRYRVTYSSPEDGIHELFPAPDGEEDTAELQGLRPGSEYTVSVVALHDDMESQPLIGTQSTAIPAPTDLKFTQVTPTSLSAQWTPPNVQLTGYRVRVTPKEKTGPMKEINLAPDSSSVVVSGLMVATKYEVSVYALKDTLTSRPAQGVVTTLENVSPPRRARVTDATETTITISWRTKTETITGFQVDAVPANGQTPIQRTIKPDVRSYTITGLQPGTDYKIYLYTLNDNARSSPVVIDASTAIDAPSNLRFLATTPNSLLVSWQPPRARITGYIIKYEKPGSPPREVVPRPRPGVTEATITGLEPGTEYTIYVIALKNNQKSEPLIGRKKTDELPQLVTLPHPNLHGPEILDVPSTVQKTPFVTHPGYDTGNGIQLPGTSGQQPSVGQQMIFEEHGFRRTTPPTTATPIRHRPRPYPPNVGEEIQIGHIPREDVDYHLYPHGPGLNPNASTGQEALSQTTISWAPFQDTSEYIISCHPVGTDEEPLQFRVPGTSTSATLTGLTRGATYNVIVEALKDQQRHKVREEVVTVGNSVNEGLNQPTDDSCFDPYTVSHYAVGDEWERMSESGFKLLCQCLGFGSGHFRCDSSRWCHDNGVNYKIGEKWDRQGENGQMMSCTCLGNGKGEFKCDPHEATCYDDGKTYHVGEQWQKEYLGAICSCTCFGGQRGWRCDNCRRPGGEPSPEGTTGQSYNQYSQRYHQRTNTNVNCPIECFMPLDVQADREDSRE

SMILES | target | test | system | setting | Kd
C[C@@H](O)[C@H](NC(=O)[C@@H]1CCCN1C(=O)[C@H](CO)NC(=O)[C@H](Cc1ccc(O)cc1)NC(=O)[C@H](CO)NC(=O)[C@@H]1CCCN1C(=O)[C@H](COP(=O)(O)O)NC(=O)[C@@H](NC(=O)[C@@H]1CCCN1C(=O)[C@H](CO)NC(=O)[C@H](Cc1ccc(O)cc1)NC(=O)[C@H](CO)NC(=O)[C@@H]1CCCN1C(=O)[C@@H](N)CO)[C@@H](C)O)C(=O)N[C@@H](COP(=O)(O)O)C(=O)N1CCC[C@H]1C(=O)N[C@@H](CO)C(=O)N[C@@H](Cc1ccc(O)cc1)C(=O)N[C@@H](CO)C(=O)O | Regulation of nuclear pre-mRNA domain-containing protein 2 (Homo sapiens, UniProt Q5VT52) | binding, ITC |  | pH 7.5 | > 1000 µM
C#CCN1C(=O)C(O)(C(=O)O)Oc2cc(F)ccc21 (centres unmarked) | Dihydroxy-acid dehydratase, chloroplastic (DHAD, Arabidopsis thaliana, UniProt Q9LIR4) | microscale thermophoresis |  |  | < 3 µM and 1 µM
CCOC(=O)CCCOc1ccc(C(=C2C=CC(=[N+]3CCC3)C=C2)c2ccc(N3CCC3)cc2)cc1 | dL5** fluorogen-activating protein | fluorescence turn-on |  |  | 0.016 µM
CCCC[C@H]1C(=O)N[C@@H](C(C)C)C(=O)N[C@@H](Cc2ccc(O)cc2)C(=O)N[C@@H](C(C)C)C(=O)N[C@@H](CCCNC(=N)N)C(=O)N[C@@H](Cc2ccc(O)cc2)C(=O)N[C@@H](CCC(N)=O)C(=O)N(C)[C@@H](Cc2ccccc2)C(=O)N[C@H](C(N)=O)CSCC(=O)N[C@@H](Cc2ccccc2)C(=O)N[C@@H](Cc2c[nH]c3ccccc23)C(=O)N[C@@H](CC(C)C)C(=O)NCC(=O)N[C@@H](CCCCN)C(=O)N1C | AT-rich interactive domain-containing protein 1B (ARID1B, Homo sapiens, UniProt Q8NFD5) | SPR |  | 278 K | 0.017 µM
CC(=O)NCCOCCOCC(=O)N[C@@H](CC(C)C)C(=O)N1CCC[C@H]1C(=O)N[C@H]1CCCCNC(=O)CSC[C@@H](C(=O)NCC(=O)NCC(=O)N[C@@H](CO)C(=O)NCC(N)=O)NC(=O)CNC(=O)[C@H](CC(C)C)NC(=O)[C@H](CO)NC(=O)[C@H](Cc2ccccc2)NC(=O)[C@H](CC(=O)O)NC(=O)[C@H](Cc2c[nH]c3ccccc23)NC(=O)[C@H](Cc2ccccc2)NC(=O)[C@H](CO)NC(=O)[C@H](CCCCN)NC(=O)[C@@H]2CCCN2C(=O)[C@H](Cc2c[nH]c3ccccc23)NC(=O)[C@H](CCC(N)=O)NC(=O)CNC(=O)[C@H]([C@@H](C)O)NC1=O | TEAD4 (Homo sapiens, UniProt Q15561) | binding, FP |  |  | 2.1 µM
COC(=O)[C@H](Cc1ccccc1)NC(=O)[C@@H]1CCCN1C(=O)[C@H](CCCNC(=N)N)NC(=O)[C@H](C)NC(C)=O | PIN1 (Homo sapiens, UniProt Q13526) | binding |  | pH 7.4 | 30.5 µM
O=C(Nc1cccc(-c2nn[nH]n2)c1)c1cc(-c2cccnc2)cc(C(F)(F)F)c1 | Beta-lactamase CTX-M-27 | surface plasmon resonance |  | 25 °C | 3.85 ± 0.05 µM
N#CC1(c2ccc3c(N)ncnn23)OC(COP(=O)(O)OP(=O)(O)OP(=O)(O)O)C(O)C1O (centres unmarked) | Albumin (ALB, Homo sapiens, UniProt P02768) | binding | human, serum albumin | pH 6 | 0.839 µM
N=C(N)NCCC[C@H](NC(=O)[C@H](Cc1ccccc1)NC(=O)[C@@H]1CCCN1C(=O)[C@H](CO)NC(=O)[C@H](Cc1ccccc1)NC(=O)CNC(=O)[C@@H]1CCCN1C(=O)[C@@H]1CCCN1C(=O)[C@@H](N)CCCNC(=N)N)C(=O)N[C@@H](CCCCNS(=O)(=O)c1ccc(C2=c3cc4c5c(c3Oc3c2cc2c6c3CCCN6CCC2)CCC[N+]=5CCC4)c(S(=O)(=O)[O-])c1)C(=O)O | Oligopeptide-binding protein OppA (oppA, Lactococcus lactis subsp. lactis, UniProt Q07741) | binding, fluorescence anisotropy |  | pH 6.5, 37 °C, with: dye-labelled peptide | 26 ± 1 µM
O=C(Nc1cccc(-c2nn[nH]n2)c1)c1cc(-n2ccnc2)cc(C(F)(F)F)c1 | Beta-lactamase CTX-M-27 | surface plasmon resonance |  | 25 °C | 6.21 ± 0.07 µM
CC[C@H](C)[C@H](NC(=O)CNC(=O)[C@H](CCCNC(=N)N)NC(=O)[C@H](CCCCN)NC(=O)CNC(=O)[C@H](CC(N)=O)NC(=O)CNC(=O)CNC(=O)CNC(=O)[C@H](CC(C)C)NC(=O)[C@H](C)NC(=O)CNC(=O)[C@H](Cc1c[nH]c2ccccc12)NC(=O)[C@H](Cc1ccc(O)cc1)NC(=O)CNC(=O)[C@H](CCCNC(=N)N)NC(=O)[C@H](CCSC)NC(=O)CNC(=O)[C@H](CCCCN)NC(=O)[C@H](CC(N)=O)NC(=O)[C@H](Cc1ccccc1)NC(=O)[C@H](CCCCN)NC(=O)[C@@H](N)CC(N)=O)C(=O)N[C@@H](CCCNC(=N)N)C(=O)NCC(=O)N[C@@H](Cc1ccc(O)cc1)C(=O)N[C@@H](CC(=O)O)C(=O)O | ERBB2 (Homo sapiens, UniProt P04626) | binding, SPR |  |  | 0.346 µM
C[C@H](N)C(=O)N[C@@H](CCCNC(=N)N)C(=O)N[C@H](C(=O)N[C@@H](CCCCN)C(=O)N[C@@H](CCC(N)=O)C(=O)N[C@H](C(=O)N[C@@H](C)C(=O)N[C@@H](CCCNC(=N)N)C(=O)N[C@@H](CCCCN)C(=O)N[C@@H](CO)C(=O)N[C@H](C(=O)NCC(=O)O)[C@@H](C)O)[C@@H](C)O)[C@@H](C)OP(=O)(O)O | Baculoviral IAP repeat-containing protein 5.1-A (birc5.1-a, Xenopus laevis, UniProt Q8JGN5) | isothermal titration calorimetry |  | pH 8.2, 25 °C, with: histone H3 peptide | 19.9 ± 2.4 µM
CN(C)c1ccc2c(-c3ccc(C(=O)NCCCC[C@H](NC(=O)COCCOCCNC(=O)CC[C@@H]4NC(=O)[C@@H](CCCNC(=N)N)NC(=O)[C@H](CCCNC(=N)N)NC(=O)[C@@H](CCCNC(=N)N)NC(=O)[C@H](CCCNC(=N)N)NC(=O)[C@H](Cc5csc6ccccc56)NC(=O)[C@@H](Cc5ccccc5)NC(=O)[C@H](Cc5ccccc5)NC4=O)C(N)=O)cc3C(=O)[O-])c3ccc(=[N+](C)C)cc-3oc2c1 | fetal bovine serum proteins | binding, fluorescence polarization |  | 1 h | 68 ± 9 µM
C[C@@H](O)[C@H](NC(=O)[C@@H]1CSSC[C@H](NC(=O)[C@@H](Cc2ccccc2)NC(=O)CN2CCCN3CCN(CCCN(CP(=O)(O)O)CC3)CC2)C(=O)N[C@@H](Cc2ccc(O)cc2)C(=O)N[C@H](Cc2c[nH]c3ccccc23)C(=O)N[C@@H](CCCCN)C(=O)N[C@@H]([C@@H](C)O)C(=O)N1)C(=O)O [copper-64 labelled] | Somatostatin receptor type 2 (Rattus norvegicus, UniProt P30680) | binding, saturation binding | AR-42J cell membranes | 2 h, room temperature | 0.0018 ± 0.0005 µM
CCCCCCCCCCCCCC(=O)NCC(=O)N[C@@H](CS)C(=O)N[C@H](C(=O)N[C@@H](CC(C)C)C(=O)N[C@@H](CO)C(=O)N[C@@H](C)C(=O)N[C@@H](CCC(=O)O)C(=O)N[C@@H](CC(=O)O)C(=O)N[C@@H](CCCCN)C(=O)O)[C@@H](C)O | CB1 cannabinoid receptor-interacting protein 1 (Cnrip1, Rattus norvegicus, UniProt Q5M7A7) | binding, fluorescence polarization |  | 30 min, pH 7.5, room temperature | 21.2 ± 2.3 µM
O=C(Nc1cccc(-c2nn[nH]n2)c1)c1cc(-c2ccccc2)cc(C(F)(F)F)c1 | Beta-lactamase CTX-M-27 | surface plasmon resonance |  | 25 °C | 40.3 ± 2.7 µM
CC[C@H](C)[C@H](NC(=O)[C@H](CC(=O)O)NC(=O)[C@@H](NC(=O)[C@@H]1CCCN1C(=O)[C@H](CC(N)=O)NC(=O)[C@H](CCC(N)=O)NC(=O)[C@H](CCC(N)=O)NC(=O)[C@H](CC(N)=O)NC(=O)CNC(=O)[C@H](Cc1ccc(O)cc1)NC(=O)[C@@H](NC(=O)[C@H](CCC(=O)O)NC(=O)[C@@H](NC(=O)[C@@H](NC(=O)[C@H](Cc1ccc(O)cc1)NC(=O)[C@H](CCC(=O)O)NC(=O)[C@@H](NC(=O)[C@H](CCC(=O)O)NC(=O)CNC(=O)[C@H](CO)NC(=O)[C@H](CCC(=O)O)NC(=O)CNC(=O)[C@H](C)NC(=O)[C@H](CC(C)C)NC(=O)[C@@H]1CCCN1C(=O)[C@H](CO)NC(=O)[C@H](CCC(N)=O)NC(=O)[C@H](CC(=O)O)NC(=O)[C@H](CCCCN)NC(=O)[C@@H](NC(=O)CNC(=O)[C@H](CCCCN)NC(=O)[C@H](CO)NC(=O)CN)[C@@H](C)O)[C@@H](C)O)[C@@H](C)CC)[C@@H](C)O)C(C)C)C(C)C)C(=O)N[C@@H](CC(=O)O)C(=O)N[C@@H](CCCCN)C(=O)N[C@@H](CCCCN)C(=O)N[C@@H](CC(C)C)C(=O)N1CCC[C@H]1C(=O)N[C@@H](CC(N)=O)C(=O)N[C@@H](CCC(=O)O)C(=O)N[C@H](C(=O)NCC(=O)N[C@@H](Cc1ccccc1)C(=O)N[C@@H](CO)C(=O)NCC(=O)N[C@@H](CC(N)=O)C(=O)N[C@@H](CCSC)C(=O)N[C@H](C(=O)N[C@@H](CCC(=O)O)C(=O)N[C@H](C(=O)N[C@@H](CCC(=O)O)C(=O)N[C@@H](CC(=O)O)C(=O)N[C@H](C(=O)N[C@@H](CCCCN)C(=O)N[C@@H](C)C(=O)O)[C@@H](C)O)[C@@H](C)O)C(C)C)[C@@H](C)O | Fibronectin (FN1, Homo sapiens, UniProt P02751) | binding, ITC |  | pH 7.2 | 0.0052 µM
CC(C)C[C@H](NC(=O)[C@@H]1CSSC[C@@H]2NC(=O)[C@H](CC(N)=O)NC(=O)[C@@H](N)CSSC[C@H](NC(=O)[C@H](CC(C)C)NC(=O)[C@H](Cc3ccccc3)NC(=O)[C@H]([C@@H](C)O)NC(=O)[C@H](CCC(=O)O)NC(=O)[C@@H]3CCCN3C(=O)[C@H](C)NC(=O)[C@H](CCCCN)NC2=O)C(=O)N[C@@H](Cc2ccc(O)cc2)C(=O)N[C@@H](Cc2c[nH]c3ccccc23)C(=O)N[C@@H](CCCNC(=N)N)C(=O)N1)C(=O)N[C@@H](CCC(N)=O)C(N)=O | Protein Mdm4, residues 24-108 (MDM4, Homo sapiens, UniProt O15151) | binding, SPR competition |  | synthetic MDMX 24-108, with: immobilized p53 peptide 15-29 | 0.018 ± 0.0023 µM
CN1C(=O)C2(Cc3ccc(CC45SSC(CO)(C(=O)N4C)N(C)C5=O)cc3)SSC1(CO)C(=O)N2C (racemic) | Histone acetyltransferase p300, CH1 domain (EP300, Homo sapiens, UniProt Q09472) | surface plasmon resonance |  | DTT 500 µM | 1.9 µM
O=C(O)CCc1c[nH]c2ccccc12 | txtE (Streptomyces scabiei, UniProt C9ZDC6) | binding |  | pH 8 | ~11 µM and 11 µM

Some of these lines once more:
SMILES | target | test | system | setting | Kd
N=C(N)NCCC[C@H](NC(=O)[C@H](Cc1ccccc1)NC(=O)[C@@H]1CCCN1C(=O)[C@H](CO)NC(=O)[C@H](Cc1ccccc1)NC(=O)CNC(=O)[C@@H]1CCCN1C(=O)[C@@H]1CCCN1C(=O)[C@@H](N)CCCNC(=N)N)C(=O)N[C@@H](CCCCNS(=O)(=O)c1ccc(C2=c3cc4c5c(c3Oc3c2cc2c6c3CCCN6CCC2)CCC[N+]=5CCC4)c(S(=O)(=O)[O-])c1)C(=O)O | Oligopeptide-binding protein OppA (oppA, Lactococcus lactis subsp. lactis, UniProt Q07741) | binding, fluorescence anisotropy |  | pH 6.5, 37 °C, with: dye-labelled peptide | 26 ± 1 µM
O=C(Nc1cccc(-c2nn[nH]n2)c1)c1cc(-n2ccnc2)cc(C(F)(F)F)c1 | Beta-lactamase CTX-M-27 | surface plasmon resonance |  | 25 °C | 6.21 ± 0.07 µM
